Measured values from different studies.
Each line is one published result; not all experiments were run side by side.
Organism: Candida albicans

SMILES	assay	system	setting	MIC
CC(=O)N1CCN(c2ccc(OCC3COC(Cn4ccnc4)(c4ccc(Cl)cc4Cl)O3)cc2)CC1 (stereo not shown)		2.209	after 30 generations serial passaging	512 µM
OC(Cn1cncn1)(Cn1cncn1)c1ccc(F)cc1F		ATCC 36232	50% inhibition	2 µg/mL
CC(C)C[C@H](NC(=O)[C@H](CCCCN)NC(=O)[C@H](CO)NC(=O)[C@H](C)NC(=O)[C@H](C)NC(=O)CNC(=O)[C@H](CC(C)C)NC(=O)[C@H](CCCCN)NC(=O)[C@H](CC(C)C)NC(=O)[C@H](CC(C)C)NC(=O)[C@H](CC(C)C)NC(=O)CNC(=O)[C@H](CO)NC(=O)[C@H](Cc1c[nH]c2ccccc12)NC(=O)[C@@H](N)CCCCN)C(N)=O	broth microdilution	ATCC 10231	44 h, 37 °C	100 µM
CC[C@H](C)[C@H](NC(=O)[C@H](CC(C)C)NC(=O)[C@@H](NC(=O)[C@H](Cc1c[nH]c2ccccc12)NC(=O)[C@H](Cc1c[nH]c2ccccc12)NC(=O)[C@H](CCCNC(=N)N)NC(=O)[C@@H](N)CCCNC(=N)N)[C@@H](C)O)C(N)=O				32 µg/mL
N=C(N)NCCC[C@H](NC(=O)[C@H](Cc1c[nH]c2ccccc12)NC(=O)[C@H](CCCNC(=N)N)NC(=O)[C@H](Cc1c[nH]c2ccccc12)NC(=O)[C@H](Cc1c[nH]c2ccccc12)NC(=O)[C@H](Cc1c[nH]c2ccccc12)NC(=O)[C@H](CCCNC(=N)N)NC(=O)[C@H](Cc1c[nH]c2ccccc12)NC(=O)[C@@H](N)CCCNC(=N)N)C(=O)N[C@@H](Cc1ccccc1)C(N)=O	broth microdilution	CGMCC 2.209, RPMI 1640-MOPS	48 h, 30 °C	8 µM
CCCCC[C@@H]1CC(=O)N[C@H](CC(C)C)C(=O)N[C@@H](CO)C(=O)N[C@@H]([C@@H](C)O)C(=O)N[C@H](Cc2ccccc2)C(=O)N[C@@H]([C@@H](C)CC)C(=O)O1	fungal growth, XTT	SC5314		> 100 µM
CC[C@H](C)[C@H](NC(=O)CN)C(=O)NCC(=O)N[C@@H](C)C(=O)N[C@H](C(=O)N[C@@H](CC(C)C)C(=O)N[C@@H](CCCCN)C(=O)N[C@H](C(=O)N[C@@H](CC(C)C)C(=O)N[C@H](C(=O)N[C@H](C(=O)NCC(=O)N[C@@H](CC(C)C)C(=O)N1CCC[C@H]1C(=O)N[C@@H](C)C(=O)N[C@@H](CC(C)C)C(=O)N[C@H](C(=O)N[C@@H](CO)C(=O)N[C@@H](Cc1c[nH]c2ccccc12)C(=O)N[C@H](C(=O)N[C@@H](CCCCN)C(=O)N[C@@H](CCCNC(=N)N)C(=O)N[C@@H](CCCCN)C(=O)N[C@@H](CCCNC(=N)N)C(=O)N[C@@H](CCC(N)=O)C(=O)N[C@@H](CCC(N)=O)C(N)=O)[C@@H](C)CC)[C@@H](C)CC)[C@@H](C)O)[C@@H](C)O)C(C)C)C(C)C	broth microdilution	SP 3903, RPMI-1640	48 h, 30 °C	4 µM
N=C(N)NCCC[C@H](NC(=O)[C@H](Cc1c[nH]c2ccccc12)NC(=O)[C@H](CCCNC(=N)N)NC(=O)[C@H](Cc1c[nH]c2ccccc12)NC(=O)[C@H](Cc1c[nH]c2ccccc12)NC(=O)[C@H](Cc1c[nH]c2ccccc12)NC(=O)[C@H](CCCNC(=N)N)NC(=O)[C@H](Cc1c[nH]c2ccccc12)NC(=O)[C@@H](N)CCCNC(=N)N)C(N)=O	broth microdilution	CGMCC 2.209, RPMI 1640-MOPS	48 h, 30 °C, with: NaCl 150 mM	8 µM
CC(C)C[C@H](NC(=O)[C@H](Cc1c[nH]c2ccccc12)NC(=O)[C@H](CC(C)C)NC(=O)[C@@H](NC(=O)[C@H](CC(C)C)NC(=O)[C@H](CCCNC(=N)N)NC(=O)[C@@H](N)CCCNC(=N)N)[C@@H](C)O)C(=O)N[C@H](C(=O)N[C@@H](CC(C)C)C(=O)N[C@@H](CCCNC(=N)N)C(=O)N[C@@H](CCCNC(=N)N)C(N)=O)[C@@H](C)O		56214, fluconazole-resistant isolate, RPMI MOPS	48 h, 37 °C	4 µM
CC[C@H](C)[C@H](NC(=O)CN)C(=O)NCC(=O)N[C@@H](C)C(=O)N[C@H](C(=O)N[C@@H](CC(C)C)C(=O)N[C@@H](CCCCN)C(=O)N[C@H](C(=O)N[C@@H](CC(C)C)C(=O)N[C@H](C(=O)N[C@H](C(=O)NCC(=O)N[C@@H](CC(C)C)C(=O)N1CCC[C@H]1C(=O)N[C@@H](C)C(=O)N[C@@H](CC(C)C)C(=O)N[C@H](C(=O)N[C@@H](CO)C(=O)N[C@@H](Cc1c[nH]c2ccccc12)C(=O)N[C@H](C(=O)N[C@@H](CCCCN)C(=O)N[C@@H](CCCNC(=N)N)C(=O)N[C@@H](CCCCN)C(=O)N[C@@H](CCCNC(=N)N)C(=O)N[C@@H](CCC(N)=O)C(=O)N[C@@H](CCC(N)=O)C(N)=O)[C@@H](C)CC)[C@@H](C)CC)[C@@H](C)O)[C@@H](C)O)C(C)C)C(C)C	broth microdilution	SP3931, RPMI 1640-MOPS	48 h, 30 °C	2 µM
CC[C@H](C)[C@H](NC(=O)CN)C(=O)N[C@@H](C)C(=O)N[C@@H](CC(=O)O)C(=O)N[C@@H](C)C(=O)N[C@H](C(=O)N[C@@H](CCCCN)C(=O)N[C@@H](C)C(=O)N[C@H](C(=O)N[C@@H](C)C(=O)N[C@@H](CCCCN)C(=O)N[C@@H](C)C(=O)N[C@@H](CC(C)C)C(=O)NCC(N)=O)[C@@H](C)CC)[C@@H](C)CC		ATCC 90029, RPMI MOPS	24 h, pH 7.0, 33 °C	128 µg/mL
N=C(N)NCCC[C@H](NC(=O)[C@H](Cc1c[nH]c2ccccc12)NC(=O)[C@H](CCCNC(=N)N)NC(=O)[C@H](Cc1c[nH]c2ccccc12)NC(=O)[C@H](Cc1c[nH]c2ccccc12)NC(=O)[C@H](Cc1c[nH]c2ccccc12)NC(=O)[C@H](CCCNC(=N)N)NC(=O)[C@H](Cc1c[nH]c2ccccc12)NC(=O)[C@H](CCCNC(=N)N)NC(=O)CN)C(N)=O	broth microdilution	CGMCC 2.209, RPMI 1640-MOPS	48 h, 30 °C, with: NaCl 150 mM	8 µM
C#Cc1ccc(C=NNC(=O)c2ccc(COC)cc2)c(O)c1		A39	48 h	4 µg/mL

Repeated from above:
SMILES	assay	system	setting	MIC
N=C(N)NCCC[C@H](NC(=O)[C@H](Cc1c[nH]c2ccccc12)NC(=O)[C@H](CCCNC(=N)N)NC(=O)[C@H](Cc1c[nH]c2ccccc12)NC(=O)[C@H](Cc1c[nH]c2ccccc12)NC(=O)[C@H](Cc1c[nH]c2ccccc12)NC(=O)[C@H](CCCNC(=N)N)NC(=O)[C@H](Cc1c[nH]c2ccccc12)NC(=O)[C@@H](N)CCCNC(=N)N)C(=O)N[C@@H](Cc1ccccc1)C(N)=O	broth microdilution	CGMCC 2.209, RPMI 1640-MOPS	48 h, 30 °C	8 µM
